{"data": "Assay results pooled from the literature", "note": "Values joined by “and” are separate records of one study, mostly repeats; a detail may differ.", "UniProt P49327, sequence (whole entry, looked up)": "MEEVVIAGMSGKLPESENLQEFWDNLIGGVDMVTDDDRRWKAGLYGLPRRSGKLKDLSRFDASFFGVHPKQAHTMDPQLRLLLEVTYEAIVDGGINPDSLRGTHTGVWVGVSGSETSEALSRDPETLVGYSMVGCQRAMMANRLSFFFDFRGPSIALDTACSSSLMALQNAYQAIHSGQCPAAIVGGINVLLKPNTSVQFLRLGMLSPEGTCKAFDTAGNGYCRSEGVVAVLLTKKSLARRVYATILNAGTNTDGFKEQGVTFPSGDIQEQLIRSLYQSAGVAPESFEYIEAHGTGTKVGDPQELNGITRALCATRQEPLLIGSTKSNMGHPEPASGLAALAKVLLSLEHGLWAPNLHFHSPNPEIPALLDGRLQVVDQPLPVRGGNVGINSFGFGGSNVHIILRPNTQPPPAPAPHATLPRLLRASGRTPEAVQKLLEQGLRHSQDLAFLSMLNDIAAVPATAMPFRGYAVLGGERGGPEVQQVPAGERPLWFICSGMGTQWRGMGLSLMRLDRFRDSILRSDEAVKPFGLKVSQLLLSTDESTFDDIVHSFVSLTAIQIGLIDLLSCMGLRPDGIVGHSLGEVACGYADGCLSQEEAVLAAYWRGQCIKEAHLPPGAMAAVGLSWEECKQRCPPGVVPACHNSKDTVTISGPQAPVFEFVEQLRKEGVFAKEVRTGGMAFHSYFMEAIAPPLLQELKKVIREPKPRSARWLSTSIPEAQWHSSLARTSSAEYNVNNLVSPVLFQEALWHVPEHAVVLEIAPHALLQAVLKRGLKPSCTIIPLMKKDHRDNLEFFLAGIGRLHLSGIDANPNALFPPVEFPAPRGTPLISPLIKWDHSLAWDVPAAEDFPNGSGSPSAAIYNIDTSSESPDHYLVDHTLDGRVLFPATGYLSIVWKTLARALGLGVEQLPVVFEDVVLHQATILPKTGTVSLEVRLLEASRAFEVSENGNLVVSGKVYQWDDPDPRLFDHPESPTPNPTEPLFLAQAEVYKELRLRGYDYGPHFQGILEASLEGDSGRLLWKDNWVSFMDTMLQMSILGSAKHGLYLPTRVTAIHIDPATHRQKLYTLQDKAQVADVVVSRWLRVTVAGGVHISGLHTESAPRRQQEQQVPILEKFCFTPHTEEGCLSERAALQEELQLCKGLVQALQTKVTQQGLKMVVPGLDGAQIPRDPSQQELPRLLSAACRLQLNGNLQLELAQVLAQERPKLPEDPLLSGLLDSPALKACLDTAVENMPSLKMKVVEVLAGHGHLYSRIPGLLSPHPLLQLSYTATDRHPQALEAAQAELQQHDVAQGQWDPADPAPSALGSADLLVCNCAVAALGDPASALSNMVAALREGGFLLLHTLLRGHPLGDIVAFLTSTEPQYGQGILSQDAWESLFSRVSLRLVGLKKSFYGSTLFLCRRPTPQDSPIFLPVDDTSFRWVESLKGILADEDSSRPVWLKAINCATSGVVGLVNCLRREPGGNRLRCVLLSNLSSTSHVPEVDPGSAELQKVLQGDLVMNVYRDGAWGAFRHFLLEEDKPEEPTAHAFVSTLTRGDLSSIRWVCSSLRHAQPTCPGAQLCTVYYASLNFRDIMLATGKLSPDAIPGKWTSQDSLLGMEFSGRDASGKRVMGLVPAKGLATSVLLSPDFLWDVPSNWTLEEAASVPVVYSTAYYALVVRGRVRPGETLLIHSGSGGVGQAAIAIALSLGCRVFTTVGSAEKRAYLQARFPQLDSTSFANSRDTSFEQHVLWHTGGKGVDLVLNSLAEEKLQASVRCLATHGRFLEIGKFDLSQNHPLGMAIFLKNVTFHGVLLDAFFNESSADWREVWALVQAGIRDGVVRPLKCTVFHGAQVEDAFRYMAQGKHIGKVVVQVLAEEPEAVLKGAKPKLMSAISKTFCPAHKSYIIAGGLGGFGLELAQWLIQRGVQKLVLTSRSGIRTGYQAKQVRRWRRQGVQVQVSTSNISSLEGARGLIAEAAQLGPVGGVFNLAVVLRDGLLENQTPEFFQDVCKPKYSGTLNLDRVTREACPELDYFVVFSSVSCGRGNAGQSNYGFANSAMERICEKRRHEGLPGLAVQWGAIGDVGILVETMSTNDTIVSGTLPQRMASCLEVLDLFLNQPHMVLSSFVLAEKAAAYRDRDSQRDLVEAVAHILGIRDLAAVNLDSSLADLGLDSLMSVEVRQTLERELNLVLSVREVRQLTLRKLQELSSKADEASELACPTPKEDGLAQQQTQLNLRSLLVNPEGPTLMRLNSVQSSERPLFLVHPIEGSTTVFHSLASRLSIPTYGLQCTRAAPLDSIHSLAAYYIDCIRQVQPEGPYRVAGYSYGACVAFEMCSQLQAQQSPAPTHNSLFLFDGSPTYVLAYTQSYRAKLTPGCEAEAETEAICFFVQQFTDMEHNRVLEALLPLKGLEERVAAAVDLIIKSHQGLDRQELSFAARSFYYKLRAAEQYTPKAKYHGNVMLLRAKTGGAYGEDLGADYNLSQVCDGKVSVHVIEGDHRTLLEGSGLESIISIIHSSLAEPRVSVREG", "UniProt P05091, sequence (whole entry, looked up)": "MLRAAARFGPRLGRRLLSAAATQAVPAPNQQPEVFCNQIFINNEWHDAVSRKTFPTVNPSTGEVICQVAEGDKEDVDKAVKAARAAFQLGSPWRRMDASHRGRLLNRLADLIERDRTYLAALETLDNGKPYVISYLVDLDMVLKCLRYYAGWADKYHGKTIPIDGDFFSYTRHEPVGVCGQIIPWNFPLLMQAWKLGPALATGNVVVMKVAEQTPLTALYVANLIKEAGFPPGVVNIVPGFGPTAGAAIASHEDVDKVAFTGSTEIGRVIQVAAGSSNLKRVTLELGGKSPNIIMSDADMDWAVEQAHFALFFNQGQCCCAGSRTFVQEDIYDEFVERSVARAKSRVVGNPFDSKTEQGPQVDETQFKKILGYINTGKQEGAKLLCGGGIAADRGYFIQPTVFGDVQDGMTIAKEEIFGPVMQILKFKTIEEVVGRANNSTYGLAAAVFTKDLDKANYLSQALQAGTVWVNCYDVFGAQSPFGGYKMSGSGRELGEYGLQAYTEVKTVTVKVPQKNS"}
{"Compound": "CS(=O)(=O)Nc1ncn(-c2cc(F)c(COc3ccc(OS(=O)(=O)F)cc3)c(F)c2)n1", "tested on": "Mycobacterium tuberculosis", "system": "non-replicating persistent culture", "setting": "20 µM, 100-day-old culture", "endpoint": "CFU reduction", "result": "1.1 log10 CFU"}
{"Compound": "CC[C@H](C)[C@H](NC(=O)[C@H](CC(C)C)NC(=O)[C@H](CCCCN)NC(=O)[C@H](CCCCN)NC(=O)[C@H](CCCCN)NC(=O)[C@H](CCCCN)NC(=O)[C@H](CC(C)C)NC(=O)[C@@H](NC(=O)[C@@H](NC(=O)[C@@H](NC(=O)[C@H](CC(C)C)NC(=O)[C@H](CCCNC(=N)N)NC(=O)[C@H](CO)NC(=O)[C@@H](N)CO)C(C)C)[C@@H](C)CC)[C@@H](C)CC)C(=O)N[C@@H](CO)C(=O)N[C@@H](CCCCN)C(=O)N[C@@H](CCCCN)C(=O)N[C@@H](CCCCN)C(=O)N[C@@H](CCCCN)C(N)=O", "tested on": "Acinetobacter baumannii, Enterococcus faecalis", "endpoint": "MIC range", "result": "4 to 8 µM"}
{"Compound": "CS(=O)(=O)c1ccc([C@@H](O)[C@@H](CF)NC(=O)C(Cl)Cl)cc1", "tested on": "Salmonella enterica", "setting": "20 h, pH 7.2", "endpoint": "MIC", "result": "4 µg/mL"}
{"Compound": "C[C@](O)(COc1ccc(C#N)cc1)C(=O)Nc1ccc(C#N)c(C(F)(F)F)c1", "tested on": "human coronavirus OC43", "test": "virus-induced cell killing", "system": "MRC-5", "setting": "maximum over 10 doses", "endpoint": "maximum inhibition", "result": "0%"}
{"Compound": "COc1cc(CCC[P+](c2ccccc2)(c2ccccc2)c2ccccc2)c(OC)c2c1OCO2.[I-]", "tested on": "OVCAR-5", "test": "SRB", "endpoint": "GI50", "result": "-5.62 log M"}
{"Compound": "CCOC(=O)C1=C[C@@H](OC(CC)CC)[C@H](NC(C)=O)[C@@H](N)C1", "tested on": "Influenza A virus A/California/07/2009 (H1N1)pdm09", "test": "viral replication, plaque reduction", "system": "wild type", "endpoint": "IC50", "result": "10 to 100 nM"}
{"Compound": "CC[C@H](C)[C@@H]1NC(=O)[C@@H]2CCCN2C(=O)[C@H](CC(C)C)NC(=O)[C@H](CC(C)C)NC(=O)CNC(=O)[C@@H](NC(=O)[C@@H](NC(=O)[C@H](CC(=O)O)NC(=O)CNC(=O)[C@@H](NC(=O)[C@H](C)NC(=O)CNC(=O)[C@H](CCCCN)NC(=O)[C@H](CC(C)C)NC(=O)[C@H](CC(C)C)NC(=O)[C@H](CCCCN)NC(=O)CNC(=O)[C@@H](NC(=O)[C@@H](N)CC(C)C)C(C)C)C(C)C)C(C)C)CSSC[C@@H](C(=O)O)NC1=O", "test": "RNA-seq, refers to: Ccdc88b", "system": "mouse, traumatic brain injury model, frontal cortex and hippocampus", "setting": "dose not given", "how to read": "relative to: TBI alone", "endpoint": "log2 fold change", "result": -2.2}
{"Compound": "CC(=O)Nc1ccc(OC[C@](C)(O)C(=O)Nc2ccc([N+](=O)[O-])c(C(F)(F)F)c2)cc1", "tested on": "human coronavirus OC43", "test": "virus-induced cell killing", "system": "MRC-5", "setting": "maximum over 10 doses", "endpoint": "maximum inhibition", "result": "0%"}
{"Compound": "COc1cc(Cc2cnc(N)nc2N)cc(OC)c1OC", "tested on": "Salmonella enterica", "setting": "20 h, pH 7", "endpoint": "MIC", "result": "0.25 µg/mL"}
{"Compound": "Nc1ncnc2c1ncn2[C@@H]1O[C@@H]2COP(=O)(O)O[C@H]3[C@@H](O)[C@H](n4cnc5c(=O)[nH]cnc54)O[C@@H]3COP(=O)(O)O[C@H]2[C@H]1O", "tested on": "HFF-1", "test": "RNA sequencing Reactome analysis, refers to: Reactome R-HSA-379716 cytosolic tRNA aminoacylation", "setting": "with: West Nile virus infection", "how to read": "relative to: West Nile virus infected cells, downregulated pathway", "endpoint": "pathway fold enrichment", "result": 9.82}
{"Compound": "C=C1C[C@@H]2[C@H](CC[C@]3(C)C(=O)CC[C@@H]23)[C@@]2(C)C=CC(=O)C=C12", "tested on": "human coronavirus OC43", "test": "virus-induced cell killing", "system": "MRC-5", "setting": "maximum over 10 doses", "endpoint": "maximum inhibition", "result": "0%"}
{"Compound": "CO[C@H]1/C=C/O[C@@]2(C)Oc3c(C)c(O)c4c(O)c(c(/C=N/N5CCN(C)CC5)c(O)c4c3C2=O)NC(=O)/C(C)=C\\C=C\\[C@H](C)[C@H](O)[C@@H](C)[C@@H](O)[C@@H](C)[C@H](OC(C)=O)[C@@H]1C", "tested on": "Mycobacteroides abscessus", "system": "RFB-R1 rifamycin-resistant RNAP mutant", "how to read": "90% growth inhibition", "endpoint": "MIC", "result": "> 100 µM"}
{"Compound": "OC(Cn1cncn1)(Cn1cncn1)c1ccc(F)cc1F", "tested on": "Saccharomyces cerevisiae", "test": "cell growth", "system": "Pdr5 deleted, empty vector", "setting": "2^-1.737 µg/mL", "endpoint": "OD600", "result": "0.669 and 0.584 and 0.572"}
{"Compound": "COc1cc(Nc2ncc(F)c(Nc3ccc4c(n3)NC(=O)C(C)(C)O4)n2)cc(OC)c1OC", "tested on": "ALDH2 (Homo sapiens, UniProt P05091)", "setting": "mitochondrial", "endpoint": "IC50", "result": "> 10000 nM"}
{"Compound": "[H]/N=C(/N)N[C@H]1[C@H](O)[C@@H](O)[C@H](O[C@@H]2O[C@@H](C)[C@](O)(C=O)[C@H]2O[C@@H]2O[C@@H](CO)[C@H](O)[C@@H](O)[C@@H]2NC)[C@@H](N/C(N)=N\\[H])[C@@H]1O", "tested on": "Salmonella enterica", "setting": "20 h, pH 7.2", "endpoint": "MIC", "result": "1020 µg/mL"}
{"Compound": "C[C@H]1CN(c2n[nH]c3nc(N[C@H]4CC[C@H](NS(=O)(=O)CCC(F)(F)F)CC4)ncc23)CCO1", "tested on": "Fatty acid synthase (FASN, Homo sapiens, UniProt P49327)", "test": "inhibitor, Kinobeads competition profiling", "setting": "0.032 µM", "how to read": "relative to: vehicle", "endpoint": "relative abundance", "result": 0.75}
{"Compound": "CCn1cc(C(=O)O)c(=O)c2ccc(C)nc21", "tested on": "Salmonella enterica", "setting": "20 h, pH 7", "endpoint": "MIC", "result": "4 µg/mL"}
{"Compound": "COc1c(CCC[P+](c2ccccc2)(c2ccccc2)c2ccccc2)cc2c(c1OC)OCO2.[I-]", "tested on": "CAKI-1", "test": "SRB", "endpoint": "GI50", "result": "-5.61 log M"}
